Measurements gathered from unrelated publications.
Numbers after ± are the reported error.
Caspase-2: Caspase-2 (Homo sapiens, UniProt P42575)
UniProt P42575, sequence (whole entry, unmodified, looked up): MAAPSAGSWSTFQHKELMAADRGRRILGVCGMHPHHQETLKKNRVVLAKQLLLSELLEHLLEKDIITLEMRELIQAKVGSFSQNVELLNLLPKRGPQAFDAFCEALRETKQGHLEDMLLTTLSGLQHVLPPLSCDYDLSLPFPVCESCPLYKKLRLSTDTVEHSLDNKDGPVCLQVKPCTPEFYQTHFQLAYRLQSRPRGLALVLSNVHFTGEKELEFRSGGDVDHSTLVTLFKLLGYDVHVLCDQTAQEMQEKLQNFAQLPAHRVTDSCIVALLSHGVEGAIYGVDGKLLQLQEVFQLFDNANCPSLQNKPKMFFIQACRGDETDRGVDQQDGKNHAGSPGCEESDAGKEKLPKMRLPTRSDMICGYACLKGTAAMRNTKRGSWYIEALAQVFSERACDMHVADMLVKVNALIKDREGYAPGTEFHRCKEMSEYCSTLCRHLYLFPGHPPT
HRH1: Histamine H1 receptor (HRH1, Cavia porcellus, UniProt P31389)
UniProt P31389, sequence (whole entry, looked up): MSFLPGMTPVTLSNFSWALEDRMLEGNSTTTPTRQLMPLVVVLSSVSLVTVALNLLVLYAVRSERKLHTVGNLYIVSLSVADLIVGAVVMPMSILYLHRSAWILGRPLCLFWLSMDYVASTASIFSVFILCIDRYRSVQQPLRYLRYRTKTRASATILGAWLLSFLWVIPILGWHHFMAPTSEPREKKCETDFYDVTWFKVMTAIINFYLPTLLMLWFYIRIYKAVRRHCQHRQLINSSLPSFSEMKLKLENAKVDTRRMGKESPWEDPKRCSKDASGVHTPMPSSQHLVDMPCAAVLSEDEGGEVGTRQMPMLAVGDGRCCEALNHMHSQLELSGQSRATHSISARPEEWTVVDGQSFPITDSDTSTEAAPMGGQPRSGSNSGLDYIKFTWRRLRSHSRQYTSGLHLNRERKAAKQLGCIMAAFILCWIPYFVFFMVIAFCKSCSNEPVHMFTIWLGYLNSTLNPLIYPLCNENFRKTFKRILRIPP
UniProt P22736, sequence (whole entry, looked up): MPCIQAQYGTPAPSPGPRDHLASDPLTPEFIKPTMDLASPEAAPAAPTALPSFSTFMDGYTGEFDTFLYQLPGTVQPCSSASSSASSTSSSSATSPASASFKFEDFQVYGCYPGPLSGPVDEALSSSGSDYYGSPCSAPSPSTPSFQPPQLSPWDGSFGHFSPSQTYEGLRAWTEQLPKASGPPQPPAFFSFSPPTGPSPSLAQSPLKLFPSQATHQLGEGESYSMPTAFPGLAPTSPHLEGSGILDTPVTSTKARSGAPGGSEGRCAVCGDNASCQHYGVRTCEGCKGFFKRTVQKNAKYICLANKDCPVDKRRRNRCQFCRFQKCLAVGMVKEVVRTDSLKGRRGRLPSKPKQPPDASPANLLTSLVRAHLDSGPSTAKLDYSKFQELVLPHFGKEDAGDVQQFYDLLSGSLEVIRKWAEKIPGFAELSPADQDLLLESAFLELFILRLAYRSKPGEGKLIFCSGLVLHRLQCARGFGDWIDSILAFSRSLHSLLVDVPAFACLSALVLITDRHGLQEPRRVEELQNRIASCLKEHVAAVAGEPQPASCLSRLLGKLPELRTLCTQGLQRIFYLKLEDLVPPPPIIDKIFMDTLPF
UniProt Q8NB78, sequence (whole entry, looked up): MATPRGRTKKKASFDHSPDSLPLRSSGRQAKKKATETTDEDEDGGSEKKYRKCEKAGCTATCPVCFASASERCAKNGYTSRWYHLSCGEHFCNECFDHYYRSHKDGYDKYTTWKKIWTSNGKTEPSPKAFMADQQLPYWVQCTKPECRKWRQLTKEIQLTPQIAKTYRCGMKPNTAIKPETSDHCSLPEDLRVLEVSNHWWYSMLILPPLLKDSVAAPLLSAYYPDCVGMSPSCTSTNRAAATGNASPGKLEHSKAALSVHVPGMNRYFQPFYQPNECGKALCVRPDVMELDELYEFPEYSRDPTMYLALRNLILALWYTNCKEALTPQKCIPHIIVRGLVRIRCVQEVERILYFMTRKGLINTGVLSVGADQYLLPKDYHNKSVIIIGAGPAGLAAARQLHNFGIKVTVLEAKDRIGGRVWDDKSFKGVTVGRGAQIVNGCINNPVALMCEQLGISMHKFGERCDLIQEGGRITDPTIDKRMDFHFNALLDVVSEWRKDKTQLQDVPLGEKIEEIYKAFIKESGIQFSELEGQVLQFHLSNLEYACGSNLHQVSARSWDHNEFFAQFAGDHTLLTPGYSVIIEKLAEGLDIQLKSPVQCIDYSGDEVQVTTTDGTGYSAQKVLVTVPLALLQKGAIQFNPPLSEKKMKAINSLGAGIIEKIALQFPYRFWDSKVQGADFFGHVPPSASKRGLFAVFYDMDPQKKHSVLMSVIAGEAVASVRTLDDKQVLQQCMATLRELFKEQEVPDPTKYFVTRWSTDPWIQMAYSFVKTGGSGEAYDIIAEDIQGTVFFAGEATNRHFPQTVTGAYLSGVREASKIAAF
UniProt P03146, sequence (whole entry, looked up): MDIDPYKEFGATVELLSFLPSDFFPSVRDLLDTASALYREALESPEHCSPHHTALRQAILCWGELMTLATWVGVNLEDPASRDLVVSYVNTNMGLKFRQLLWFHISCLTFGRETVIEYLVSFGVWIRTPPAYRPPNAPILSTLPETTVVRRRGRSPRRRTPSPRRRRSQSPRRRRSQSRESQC
UniProt Q9NXA8, sequence (whole entry, unmodified, looked up): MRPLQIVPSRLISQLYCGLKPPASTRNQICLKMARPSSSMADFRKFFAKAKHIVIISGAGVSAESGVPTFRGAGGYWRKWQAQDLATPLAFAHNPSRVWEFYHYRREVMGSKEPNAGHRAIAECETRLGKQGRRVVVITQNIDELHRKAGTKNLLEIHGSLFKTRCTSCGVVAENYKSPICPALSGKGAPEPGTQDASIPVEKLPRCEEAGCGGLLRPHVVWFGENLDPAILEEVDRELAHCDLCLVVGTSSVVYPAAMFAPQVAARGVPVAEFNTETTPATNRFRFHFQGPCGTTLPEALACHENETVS

SMILES | target | assay | system | setting | measurement | value
CC(=O)N[C@H](C(=O)N[C@@H](CCN)C(=O)N[C@H](C=O)CC(=O)O)C(C)C | Caspase-2 | enzyme activity, inhibitor, fluorescence |  | pH 6.5 | Ki | 52.5 µM
O=C(CC12CC3CC(CC(C3)C1)C2)NCCOCC(=O)NC1CCN(S(=O)(=O)c2cc(C(=O)Nc3cc(F)c(F)c(F)c3)ccc2F)CC1 | Capsid protein (C, Hepatitis B virus genotype D subtype ayw, UniProt P03146) | degrader, Western blot, refers to: HBV core protein | HepAD38, Hepatitis B virus | 24 h | DC50 | 3.02 ± 0.54 µM
CC(=O)N[C@@H](Cc1ccccc1)C(=O)N[C@@H](CC(=O)O)C(=O)N[C@H](C(=O)N1CCC[C@H]1C(=O)N[C@H](C=O)CC(=O)O)C(C)C | Caspase-2, circularly permuted (Homo sapiens, UniProt P42575) | enzyme activity, inhibitor |  | pH 6.5, 37 °C, added: Z-VDVAD-AFC | Ki | 0.00933 µM
CC1=C(O)C(=O)C=C2C1=CC=C1[C@@]2(C)CC[C@@]2(C)[C@@H]3C[C@](C)(C(=O)NCCOCCOCCOCCOCC(=O)N[C@H](C(=O)N4C[C@H](O)C[C@H]4C(=O)N[C@@H](C)c4ccc(-c5scnc5C)cc4)C(C)(C)C)CC[C@]3(C)CC[C@]12C | Nuclear receptor subfamily 4 group A member 1 (NR4A1, Homo sapiens, UniProt P22736) | protein level, degrader, western blot |  |  | DC50 | 0.519 µM
CCCNC(=N)NCCCc1c[nH]cn1 | HRH1 | tissue contraction, antagonist |  |  | Kb | 14.8 µM
COc1ccc(CCCN[C@@H]2CCC[C@H]2CN[C@@H]2CCC[C@H]2CNCCCCN[C@H]2CCC[C@@H]2CN)cc1 | KDM1B (Homo sapiens, UniProt Q8NB78) | enzyme activity, inhibitor |  |  | Ki | 6.9 µM
CCOC(=O)C1=CN([C@@H]2O[C@H](CO)[C@@H](O)[C@H]2O)C=CC1 | SIRT5 (Homo sapiens, UniProt Q9NXA8, W222A) | binding, MST |  |  | Kd | 1.2 µM
Cc1nc(N)sc1CCCNC(=N)NCCCCCCCCNC(=N)NCCCc1sc(N)nc1C | HRH1 | tissue contraction, antagonist |  |  | Kb | 1.32 µM
CC(=O)N[C@@H](CCCNC(=N)N)C(=O)N[C@@H](C)C(=O)N[C@H](C=O)CC(=O)O | Caspase-2 | enzyme activity, inhibitor, fluorescence |  | pH 6.5 | Ki | > 100 µM

Some of these lines once more:
SMILES | target | assay | system | setting | measurement | value
CC(=O)N[C@@H](Cc1ccccc1)C(=O)N[C@@H](CC(=O)O)C(=O)N[C@H](C(=O)N1CCC[C@H]1C(=O)N[C@H](C=O)CC(=O)O)C(C)C | Caspase-2, circularly permuted (Homo sapiens, UniProt P42575) | enzyme activity, inhibitor |  | pH 6.5, 37 °C, added: Z-VDVAD-AFC | Ki | 0.00933 µM
